Measurements of several laboratories.
Protocols differ between the studies behind these lines. “And” joins repeats or separate records; there may be more than shown.
Target: Mitogen-activated protein kinase 11 (MAPK11, Homo sapiens, UniProt Q15759)
Chain of UniProt Q15759 (whole entry, looked up): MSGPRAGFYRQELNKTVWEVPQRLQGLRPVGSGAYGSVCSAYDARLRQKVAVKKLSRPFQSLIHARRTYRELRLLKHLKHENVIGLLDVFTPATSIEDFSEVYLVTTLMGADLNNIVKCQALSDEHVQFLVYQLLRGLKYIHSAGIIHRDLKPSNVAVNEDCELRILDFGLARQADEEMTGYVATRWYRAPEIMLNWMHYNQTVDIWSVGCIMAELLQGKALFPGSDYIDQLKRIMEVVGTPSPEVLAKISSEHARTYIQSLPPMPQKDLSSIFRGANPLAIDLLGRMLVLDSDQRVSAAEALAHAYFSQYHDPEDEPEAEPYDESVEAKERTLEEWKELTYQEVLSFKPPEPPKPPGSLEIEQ

Structure (SMILES) | test | setting | scale | measurement | result
CCOC(=O)[C@@H]1Cc2c(cc([N+](=O)[O-])cc2[N+](=O)[O-])[C@H](O)[C@]12C(=O)Nc1ccc(Br)cc12 | binding, competition with immobilised ligand | 0.1 µM | – | remaining binding | 99%
O=C1NC(=O)c2c1c1cc(F)c[n+]3c1c1c2c2cc(O)ccc2[n]1[Ru-4]312([N]=C=S)[S+]3CC[S+]1CC[S+]2CC3 (centres unmarked) | enzyme activity | 100 nM, human enzyme, added: 10 µM ATP | relative to: untreated | remaining activity | 98%
O=C(O)c1ccccc1/C=N/Nc1nc(-c2ccccc2Cl)cs1 | enzyme activity, inhibitor | 1 µM | – | inhibition | 4.93%
C[C@H](NCc1ccc(-c2ccc(C(F)(F)F)cc2)cc1)C(N)=O | cell-free assay, competition with immobilised ligand | 1 µM | – | inhibition | 0%
CC(C)[C@H]1NC(=O)C[C@H]2/C=C/CCSSC[C@@H](NC1=O)C(=O)N[C@H](Cc1cccc3ccccc13)C(=O)NCC(=O)O2 | enzyme activity, inhibitor | 10 µM | – | inhibition | 2.6%
Nc1ccc(/C=C/C(=O)N2CCc3c(oc4c(-c5ccc(F)cc5)cc(-c5ccc(C(=O)N6CCC(F)(F)CC6)cn5)cc34)C2)cn1 | binding, competition with immobilised ligand | 1 µM | – | remaining binding | 97%
[CH3][Ti+2][O]C(=O)c1ccc([S][Au][PH](c2ccccc2)(c2ccccc2)c2ccccc2)cc1.c1cc[cH-]c1.c1cc[cH-]c1 | kinase activity, HotSpot kinase | 1 µM, added: ATP 10 µM | – | remaining activity | 116% and 121%
CS(C)(=O)=Nc1ccc(-c2ccc(-c3nc4cc(O[C@@H]5CO[C@H]6[C@@H]5OC[C@H]6O)[nH]c4cc3F)cc2)cc1 | enzyme activity, inhibitor | 10 µM | – | inhibition | 11%
